Published values collected from several papers.
Every numbered part comes from another study and shows a few of its results, in no order.

Sample 1
Target: Ras GTPase-activating protein-binding protein 1, full length (G3BP1, Homo sapiens, UniProt Q13283)
Chain of UniProt Q13283 (whole entry, looked up): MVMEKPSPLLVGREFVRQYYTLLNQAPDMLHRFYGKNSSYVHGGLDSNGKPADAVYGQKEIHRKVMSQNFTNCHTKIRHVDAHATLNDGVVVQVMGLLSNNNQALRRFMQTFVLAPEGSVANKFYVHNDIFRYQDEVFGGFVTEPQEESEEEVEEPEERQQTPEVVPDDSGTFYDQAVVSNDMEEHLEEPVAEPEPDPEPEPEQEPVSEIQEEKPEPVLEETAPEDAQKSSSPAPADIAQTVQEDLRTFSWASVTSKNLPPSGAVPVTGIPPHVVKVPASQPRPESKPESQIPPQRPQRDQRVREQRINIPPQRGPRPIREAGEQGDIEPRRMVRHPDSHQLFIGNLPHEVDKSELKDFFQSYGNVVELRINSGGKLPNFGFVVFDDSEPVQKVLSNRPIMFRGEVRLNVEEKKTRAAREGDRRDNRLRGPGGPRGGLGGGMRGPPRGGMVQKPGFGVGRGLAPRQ
Method: RNA Bind-n-Seq
Form: RNA
Matrix: in vitro
Tested at: 200 nM
Notes: whole 134-nt RNA, ends assumed
Together with: 150 mM KCl
Baseline: input library
Direction: higher = stronger binding
Constant ends, left off below: GGGAGUUCUACAGUCCGACGAUC … UGGAAUUCUCGGGUGUCAAGG
Sequence	log2 enrichment
AAGUCCUGUGCUACACAUCGUAUGUACCGAAUCGGUUUUGGGGUUUUGGGUUUUGGGAAAGUAUUAUGUUACGCCGUUCGGAUCUGCACU	-0.629
CCUGUGCUACACAUCGUAUGUACCGAAUCGGGAAAAAAAGGGAAAAAAAGGGAAAAAAAGGAAAGUAUUAUGUUACGCCGUUCGGAUCUG	-0.868
CCUGUGCUACACAUCGUAUGUACCGAAUCGGGGUUUUUGGGGAAAAAAAGGGGUUUGGGGAAAGUAUUAUGUUACGCCGUUCGGAUCUGC	0.327
UGUCCAGCUCUGAAGGGCAAAGUGCAGAAGAUCCUAAUCUGGAAGUGGGGUCAGCCACCAUCUCCCACACCAGUGCCUCGGCCUCCAGAU	0.0259
CUGUGCUACACAUCGUAUGUACCGAAUCGGGGUUUUUGGGGAAAAAGGGGAAAAAAAGGGGAAAGUAUUAUGUUACGCCGUUCGGAUCUG	-0.29
UCCUGUGCUACACAUCGUAUGUACCGAAUCGGAAAAAAAGGAAAAAAAGGAAAAAAAGGGAAAGUAUUAUGUUACGCCGUUCGGAUCUGC	-0.255

Sample 2
Target: Histone acetyltransferase KAT6A, both winged helices, GST fusion (KAT6A, Homo sapiens, UniProt Q92794, residues 1-181)
Method: protein binding microarray
Form: double-stranded DNA, one strand shown
Matrix: in vitro
Tested at: not given
Notes: 8-mer, flanks averaged, mean of 2 arrays, mostly near background
Baseline: not given
Direction: higher = stronger binding
Construct (chain): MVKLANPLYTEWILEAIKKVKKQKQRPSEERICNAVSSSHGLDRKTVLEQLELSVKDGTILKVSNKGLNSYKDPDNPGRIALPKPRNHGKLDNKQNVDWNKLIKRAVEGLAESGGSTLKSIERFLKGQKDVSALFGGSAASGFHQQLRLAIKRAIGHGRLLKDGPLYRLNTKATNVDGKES
Sequence	E-score
CCTGAGAG	-0.244
AATCATAC	0.0735
CCAATTGG	-0.133
GTGACATA	-0.0699
ATCTGTGC	-0.0724
AAAGCCAA	-0.165

Sample 3
Target: Sal-like protein 4, full length isoform B (SALL4, Homo sapiens, UniProt Q9UJQ4-2, residues 1-616)
Method: universal PBM
Form: double-stranded DNA, one strand shown
Matrix: in vitro
Tested at: not given
Notes: 8-mer, flanks averaged, mean of replicates
Direction: higher = stronger binding
Residues (chain): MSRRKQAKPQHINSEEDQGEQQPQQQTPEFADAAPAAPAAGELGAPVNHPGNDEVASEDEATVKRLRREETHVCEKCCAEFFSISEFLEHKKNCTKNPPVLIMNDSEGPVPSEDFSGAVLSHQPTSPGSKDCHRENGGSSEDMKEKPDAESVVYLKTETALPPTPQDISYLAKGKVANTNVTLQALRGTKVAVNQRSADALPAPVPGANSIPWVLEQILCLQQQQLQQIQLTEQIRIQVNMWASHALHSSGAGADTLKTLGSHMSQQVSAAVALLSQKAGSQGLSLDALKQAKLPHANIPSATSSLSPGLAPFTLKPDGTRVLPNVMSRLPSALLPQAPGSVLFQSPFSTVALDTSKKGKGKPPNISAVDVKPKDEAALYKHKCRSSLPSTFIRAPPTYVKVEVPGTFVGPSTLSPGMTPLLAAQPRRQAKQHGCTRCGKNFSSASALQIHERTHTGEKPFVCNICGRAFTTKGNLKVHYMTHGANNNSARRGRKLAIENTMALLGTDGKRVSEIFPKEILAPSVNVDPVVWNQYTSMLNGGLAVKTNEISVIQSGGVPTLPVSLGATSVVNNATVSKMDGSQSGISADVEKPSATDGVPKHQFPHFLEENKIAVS
Sequence	E-score
AAGCGTGA	-0.0162
GACTACGC	-0.129
CGACCGTC	-0.287
AAATTCAG	0.133
AACACCTT	-0.0269
AAGCGGAC	-0.238

Other studies, line by line
Substance	target	test	test system	setting	scale	measurement	result
PhoQ, residues 284 288 289 292 302 303 WVSSAF	PhoP, residues 12 14 15 18 19 SQCLL (Escherichia coli, UniProt P23836)	Sort-seq, refers to: YFP reporter	E. coli	PhoQ-PhoP variant library, together with: 10 µM Mg2+	baseline: high Mg2+ state, higher = stronger signaling	fold induction	10.3

A few entries again (sample 2):
Sequence	E-score
GTGACATA	-0.0699
CCAATTGG	-0.133
